Experimental data gathered from unrelated publications.
Each line is one published result; not all experiments were run side by side.
Organism: Pseudomonas aeruginosa

C#CCNC(=O)[C@H]1NC(=O)[C@H]2NC(=O)[C@H](NC(=O)[C@@H]3NC(=O)[C@H](CC(N)=O)NC(=O)[C@H](NC(=O)[C@@H](CC(C)C)NC)[C@H](O)c4ccc(c(Cl)c4)Oc4cc3cc(c4O[C@@H]3O[C@H](CO)[C@@H](O)[C@H](O)[C@H]3O[C@H]3C[C@](C)(N)[C@H](O)[C@H](C)O3)Oc3ccc(cc3Cl)[C@H]2O)c2ccc(O)c(c2)-c2c(O)cc(O)cc21 — MIC (broth microdilution; ATCC 27853, cation-adjusted Mueller-Hinton broth): > 86 µM
N=C(N)NCCC[C@@H]1NC(=O)[C@H](CCCNC(=N)N)NC(=O)[C@@H](CCCNC(=N)N)NC(=O)[C@H](C(c2ccccc2)c2ccccc2)NC(=O)[C@H](C(c2ccccc2)c2ccccc2)NC(=O)[C@H](C(c2ccccc2)c2ccccc2)NC(=O)[C@H](CCCNC(=N)N)NC1=O — MIC (1188712, multidrug-resistant): 32 µg/mL
CC[C@H](C)[C@H](NC(=O)[C@@H](CCCNC(=N)N)NC(=O)[C@H](CCCNC(=N)N)NC(=O)[C@@H]1CCCN1C(=O)[C@@H]1CCCN1C(=O)[C@H](Cc1c[nH]cn1)NC(=O)[C@@H]1CCCN1C(=O)[C@H](CCCNC(=N)N)NC(=O)[C@@H]1CCCN1C(=O)[C@H](CC(C)C)NC(=O)[C@H](Cc1ccc(O)cc1)NC(=O)[C@@H]1CCCN1C(=O)[C@@H]1CCCN1C(=O)[C@H](CCCCN)NC(=O)[C@H](CC(=O)O)NC(=O)[C@@H](N)C(C)C)C(=O)N[C@@H](Cc1ccc(O)cc1)C(=O)N[C@@H](CC(N)=O)C(=O)N[C@H](CCCNC(=N)N)C(N)=O — MIC (broth microdilution; DSM 1117; 18 h, 37 °C, 25% MHB2): 128 µg/mL
C=C1NC(=O)C2CSCC3NC(=O)C(CSC(C)C(NC(=S)C(Cc4cnc[nH]4)NC(=O)c4csc(C(C)NC(C)=O)n4)C(=O)N[C@H](CC(C)C(=O)NC(=O)CC(C(=O)O)NC(=O)C(C)NC3=O)C(=O)N2)NC(=O)[C@@H]2CCCN2C(=O)[C@@H](CC(C)C)NC1=O (stereo partly shown) — MIC (bacterial growth; ATCC 27853): > 32 µg/mL
CN[C@H](CC(C)C)C(=O)N[C@H]1C(=O)N[C@@H](CC(N)=O)C(=O)N[C@H]2C(=O)N[C@H]3C(=O)N[C@H](C(=O)N[C@H](C(=O)O)c4cc(O)cc(O)c4-c4cc3ccc4O)[C@H](O)c3ccc(c(Cl)c3)Oc3cc2cc(c3O[C@@H]2O[C@H](CO)[C@@H](O)[C@H](O)[C@H]2O[C@H]2C[C@](C)(NCc3ccc(OCc4cn(CC(=O)N[C@H](C(=O)N[C@@H](CCN)C(=O)N[C@H]5CCNC(=O)[C@H]([C@@H](C)O)NC(=O)[C@H](CCN)NC(=O)[C@H](CCN)NC(=O)[C@H](CC(C)C)NC(=O)[C@@H](CC(C)C)NC(=O)[C@H](CCN)NC5=O)[C@@H](C)O)nn4)c(OC)c3)[C@H](O)[C@H](C)O2)Oc2ccc(cc2Cl)[C@H]1O — MIC (broth microdilution; ATCC 27853, cation-adjusted Mueller-Hinton broth): 6 µM
CC[C@H](C)[C@H](NC(=O)[C@@H](CCCNC(=N)N)NC(=O)[C@H](CCCNC(=N)N)NC(=O)[C@@H]1CCCN1C(=O)[C@@H]1CCCN1C(=O)[C@H](CCCNC(=N)N)NC(=O)[C@@H]1CCCN1C(=O)[C@H](CCCNC(=N)N)NC(=O)[C@@H]1CCCN1C(=O)[C@H](CC(C)C)NC(=O)[C@H](Cc1ccc(O)cc1)NC(=O)[C@H](Cc1ccccc1)NC(=O)[C@@H]1CCCN1C(=O)[C@H](CCCCN)NC(=O)[C@H](CC(=O)O)NC(=O)[C@@H](N)C(C)C)C(=O)N[C@@H](Cc1ccc(O)cc1)C(=O)N[C@@H](CC(N)=O)C(=O)N[C@H](CCCNC(=N)N)C(N)=O — MIC (broth microdilution; DSM 1117; 18 h, 37 °C, 25% MHB2): 128 µg/mL
CC(C)C[C@H](NC(=O)[C@H](CCCCN)NC(=O)C1CCC=CCCC(NC(=O)[C@H](CCCCN)NC(=O)[C@@H](N)CC(C)C)C(=O)N[C@@H](CCCCN)C(=O)N[C@@H](CC(C)C)C(=O)N[C@@H](CCCCN)C(=O)N2CCC[C@@H]2C(=O)NCC(=O)N[C@@H](CCCCN)C(=O)N[C@@H](CC(C)C)C(=O)N[C@@H](CCCCN)C(=O)N1)C(N)=O (stereo partly shown) — MIC (broth microdilution; ATCC 9027, Mueller-Hinton broth; 18 h, 37 °C): 8 µM
CN[C@H](CC(C)C)C(=O)N[C@H]1C(=O)N[C@@H](CC(N)=O)C(=O)N[C@H]2C(=O)N[C@H]3C(=O)N[C@H](C(=O)N[C@H](C(=O)NCc4cn(CC(=O)N[C@H](C(=O)N[C@@H](CCN)C(=O)N[C@H]5CCNC(=O)[C@H]([C@@H](C)O)NC(=O)[C@H](CCN)NC(=O)[C@H](CCN)NC(=O)[C@H](CC(C)C)NC(=O)[C@@H](CC(C)C)NC(=O)[C@H](CCN)NC5=O)[C@@H](C)O)nn4)c4cc(O)cc(O)c4-c4cc3ccc4O)[C@H](O)c3ccc(c(Cl)c3)Oc3cc2cc(c3O[C@@H]2O[C@H](CO)[C@@H](O)[C@H](O)[C@H]2O[C@H]2C[C@](C)(N)[C@H](O)[C@H](C)O2)Oc2ccc(cc2Cl)[C@H]1O — MIC (broth microdilution; ATCC 13883, cation-adjusted Mueller-Hinton broth): 13 µM
CC[C@H](C)[C@H](NC(=O)[C@H](CCCNC(=N)N)NC(=O)[C@@H](NC(=O)[C@@H](NC(=O)[C@H](CCCNC(=N)N)NC(=O)[C@H](CCCCN)NC(=O)[C@H](Cc1ccccc1)NC(=O)[C@H](CCCNC(=N)N)NC(=O)[C@H](CCCCN)NC(=O)[C@@H](NC(=O)[C@@H](N)CCCCN)[C@@H](C)CC)[C@@H](C)CC)C(C)C)C(=O)N[C@@H](CCCCN)C(=O)N[C@@H](Cc1ccccc1)C(=O)N[C@@H](CC(C)C)C(=O)N[C@@H](CCCNC(=N)N)C(=O)N[C@H](C(=O)N[C@H](C(=O)N[C@@H](CCCNC(=N)N)C(=O)N[C@@H](CCCNC(=N)N)C(N)=O)C(C)C)C(C)C — MIC (broth microdilution; 10145): 3.75 µg/mL
CCCCCCCC(=O)N[C@@H](CCN)C(=O)N[C@H](C(=O)N[C@@H](CCN)C(=O)N[C@H]1CCNC(=O)[C@H]([C@@H](C)O)NC(=O)[C@H](CCN)NC(=O)[C@H](CCN)NC(=O)[C@H](CCC(C)C)NC(=O)[C@@H](Cc2ccccc2)NC(=O)[C@H](CCN)NC1=O)[C@@H](C)O — MIC (broth microdilution; colistin-resistant isolates): 0.5 to 2 µg/mL

Excerpt of the above:
C#CCNC(=O)[C@H]1NC(=O)[C@H]2NC(=O)[C@H](NC(=O)[C@@H]3NC(=O)[C@H](CC(N)=O)NC(=O)[C@H](NC(=O)[C@@H](CC(C)C)NC)[C@H](O)c4ccc(c(Cl)c4)Oc4cc3cc(c4O[C@@H]3O[C@H](CO)[C@@H](O)[C@H](O)[C@H]3O[C@H]3C[C@](C)(N)[C@H](O)[C@H](C)O3)Oc3ccc(cc3Cl)[C@H]2O)c2ccc(O)c(c2)-c2c(O)cc(O)cc21 — MIC (broth microdilution; ATCC 27853, cation-adjusted Mueller-Hinton broth): > 86 µM
